Experimental data collected from several papers.
Protocols differ between the studies behind these lines. Several values in a cell are separate wells, animals, samples, runs or records.
TDP1: Tyrosyl-DNA phosphodiesterase 1 (TDP1, Homo sapiens, UniProt Q9NUW8)
Sequence of UniProt Q9NUW8 (whole entry, looked up): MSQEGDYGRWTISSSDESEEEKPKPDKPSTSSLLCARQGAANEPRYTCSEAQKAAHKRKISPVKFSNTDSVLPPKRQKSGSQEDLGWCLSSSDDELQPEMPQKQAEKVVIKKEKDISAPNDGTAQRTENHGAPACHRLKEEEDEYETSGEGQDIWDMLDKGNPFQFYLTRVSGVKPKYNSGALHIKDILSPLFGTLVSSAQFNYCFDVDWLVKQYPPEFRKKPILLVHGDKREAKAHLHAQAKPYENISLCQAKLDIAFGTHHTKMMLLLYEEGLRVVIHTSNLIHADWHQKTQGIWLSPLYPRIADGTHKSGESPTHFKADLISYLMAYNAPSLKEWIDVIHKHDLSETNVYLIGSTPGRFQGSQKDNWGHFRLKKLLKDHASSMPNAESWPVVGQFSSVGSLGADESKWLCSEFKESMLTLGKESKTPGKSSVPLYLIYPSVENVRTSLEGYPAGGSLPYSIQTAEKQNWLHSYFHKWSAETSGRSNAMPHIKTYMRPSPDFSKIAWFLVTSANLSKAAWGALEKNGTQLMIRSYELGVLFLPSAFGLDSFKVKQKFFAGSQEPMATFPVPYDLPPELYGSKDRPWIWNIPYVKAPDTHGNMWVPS

Under “log2 fold change”, `CN1CCCNC(=O)c2cccc(c2)C(=O)NCCCN(C)CCCNc2cccc3c2C(=O)c2cccc(c2C3=O)NCCC1` is recorded as 3.48 (SAS; RNA-Seq, item: CARD9 mRNA; 1 µM, 6 h; baseline: untreated cells).
With `CNS(=O)(=O)Nc1nccc(Cc2c(C)c3ccc(Oc4ncccc4F)cc3oc2=O)c1F` the IC50 was 0.665 µM (NCI-H1048; cell viability; 7 days).
`Cc1nc(N2CCCCC2)nc(O)c1C=NOCc1ccc2nc(-c3ccccc3)c(Nc3ccc(C(=O)O)cc3)n2c1` gave an inhibition of 34.2% (TDP1; enzyme activity, inhibitor; 100 µM, unpurified compound).
For `CC(C)c1ccc(N(C)c2ccc3c(c2)OCC[C@H]3CNc2cnccc2C(=O)O)cc1`, the IC50 was ≥ 10 µM (Capan-2; cell growth or viability, ATP luminescence; 7 days).
Under “log2 fold change”, `Cn1ncc2cc(-c3cncc(Cl)c3N3CCC4(CCNC4=O)CC3)ccc21` is recorded as 1.43 (LS174T; gene expression, microarray, item: NDRG1 mRNA; concentration not given, 4 h; baseline: untreated cells).
`O=C(O)c1ccc(Nc2c(-c3ccccc3)nc3ccc(CON=Cc4ccc(-c5nc6ccccc6s5)o4)cn23)cc1` has an inhibition of 24% (TDP1; enzyme activity, inhibitor; 100 µM, unpurified compound).
For `COc1ccccc1-c1ccncc1C(=O)Nc1nnc(OCc2ccc(Cl)cc2)s1`, the colony count was 19 and 21 and 25 (MDA-MB-231; 12 µM, single replicate).
`CCN(CC)CC(=O)Nc1cccc(-n2cc(-c3ccc4ccc(-c5cn(-c6cccc(NC(=O)CN(CC)CC)c6)nn5)cc4c3)nn2)c1` has a fold regulation of -1.04 (RCC4; PCR angiogenesis array, item: COL4A3; 5 x IC50, 2 h, normoxia; baseline: untreated).
`Cc1ncsc1-c1ccc(C(C)NC(=O)C2CC(O)CN2C(=O)C(NC(=O)CCCCCCCCCCN2CCCC(Nc3ncc(Cl)c(Nc4ccccc4S(=O)(=O)C(C)C)n3)C2)C(C)(C)C)cc1` (centres unmarked) — result for “log2 fold change”: -1.46 (22Rv1; RNA-seq, item: SLC16A9 mRNA; concentration not given; baseline: DMSO).
For `O=C(C[Se]C(=O)c1cc2ccccc2[nH]1)Nc1cccc(C(F)(F)F)c1`, the mean TGI was 3.65 µM (NCI60 leukaemia subpanel; NCI60 five-dose screen).
The colony count of `CO[C@@H]1[C@@H](OC(N)=O)[C@@H](O)[C@H](Oc2ccc3c(O)c(NC(=O)c4ccc(O)c(CC=C(C)C)c4)c(=O)oc3c2C)OC1(C)C` is reported as 0.1 (DLD-1 parental; 300 µM, replicate 1).

Excerpt of the above:
With `CNS(=O)(=O)Nc1nccc(Cc2c(C)c3ccc(Oc4ncccc4F)cc3oc2=O)c1F` the IC50 was 0.665 µM (NCI-H1048; cell viability; 7 days).
